{"data": "Assay results from different studies", "note": "± marks the error that the study gave."}
{"Molecule": "Cc1c(C)c2c(c(C)c1OCc1ccccc1)CCC(C)(C(=O)NN=C1C(=O)N(C)c3ccc(Cl)cc31)O2 (stereo not shown)", "test": "seizure protection", "test system": "male CF-1 mice", "setting": "intraperitoneal, 0.5 h, together with: pentylenetetrazole 60 mg/kg subcutaneous", "measurement": "minimal effective dose", "value": "100 mg/kg"}
{"Molecule": "CCCCCC(C=O)=Cc1ccccc1", "tested on": "cysteine peptide Ac-RFAACAA-COOH", "test": "peptide depletion, DPRA RapidFire-MS/MS", "setting": "24 h, pH 7.5, room temperature, together with: 5.0 µM cysteine peptide", "measurement": "IC50", "value": "292 µM"}
{"Molecule": "O=C1NC(=O)C(c2ccccc2)(c2ccccc2)N1", "test": "seizure protection", "test system": "male CF-1 mice", "setting": "intraperitoneal, 0.5 h, together with: maximal electroshock", "measurement": "minimal effective dose", "value": "30 mg/kg"}
{"Molecule": "CCOC(=O)/C=C\\C(=O)OCC", "tested on": "cysteine peptide Ac-RFAACAA-COOH", "test": "DPRA RapidFire-MS/MS", "setting": "24 h, pH 7.5, together with: 5.0 µM cysteine peptide", "measurement": "maximal peptide depletion", "value": "-108%"}
{"Molecule": "CO/N=C(\\C(=O)N[C@@H]1C(=O)N2C(C(=O)O)=C(CSc3nc(=O)c(=O)[nH]n3C)CS[C@H]12)c1csc(N)n1", "tested on": "Staphylococcus aureus", "test": "checkerboard broth microdilution", "test system": "methicillin-susceptible isolate 56-96", "setting": "together with: magainin II", "measurement": "FIC index", "value": 0.25}
{"Molecule": "Cc1noc(NS(=O)(=O)c2ccc(N=NN(O)c3ccccc3)cc2)c1C", "test": "paw oedema", "test system": "rat, carrageenan oedema", "setting": "oral, 100 mg/kg, 2 h after carrageenan", "scale": "reference: vehicle", "measurement": "inhibition", "value": "39.7%"}
{"Molecule": "COc1c(Cl)c(C)c(C=O)c(O)c1C/C=C(C)/C=C/[C@@]1(C)[C@H](C)CCC(=O)[C@@H]1C", "tested on": "Wickerhamomyces anomalus", "test": "O2 uptake, inhibitor", "test system": "mitochondria", "setting": "together with: glycerol 3-phosphate 20 mM", "measurement": "IC50", "value": "5.8 µM"}
{"Molecule": "O=C1NC2(CCCCC2)c2nc3c(c(-c4ccccc4)c21)CCCC3", "tested on": "human erythrocytes", "test": "hypotonicity-induced hemolysis", "setting": "1000 µg/mL, 1 h", "measurement": "inhibition", "value": "96%"}
{"Molecule": "O=C1OC(=O)c2ccccc21", "tested on": "cysteine peptide Ac-RFAACAA-COOH", "test": "peptide depletion, DPRA RapidFire-MS/MS", "setting": "24 h, pH 7.5, room temperature, together with: 5.0 µM cysteine peptide", "measurement": "IC50", "value": "inactive"}
{"Molecule": "SIYNFEKL", "tested on": "OT-I CD8+ T cells", "test": "refers to: IL-2, IFN-gamma, TNF-alpha", "test system": "peptide", "setting": "primed 5 d, OVA257 100 ng/mL restimulation, together with: 20 ng/mL TGF-beta1 from day 2", "measurement": "double cytokine producers", "value": "17.6%"}
{"Molecule": "IINFEKL", "tested on": "ERAP1 human wild type", "test": "activator", "test system": "peptide", "setting": "100 µM, pH 8.0, 27 °C, together with: L-AMC substrate", "measurement": "Hill coefficient", "value": 2.6}
{"Molecule": "O=CCc1ccccc1", "tested on": "cysteine peptide Ac-RFAACAA-COOH", "test": "DPRA RapidFire-MS/MS", "setting": "24 h, pH 7.5, together with: 5.0 µM cysteine peptide", "measurement": "peptide depletion", "value": "inactive"}
{"Molecule": "Cc1c(C)c2c(c(C)c1O)CCC(C)(C(=O)NN=C1C(=O)Nc3ccc(F)cc31)O2 (stereo not shown)", "test": "seizure protection", "test system": "male CF-1 mice", "setting": "intraperitoneal, 4 h, together with: maximal electroshock", "measurement": "minimal effective dose", "value": "> 300 mg/kg"}
{"Molecule": "CC[C@H]1OC(=O)[C@H](C)[C@@H](O[C@H]2C[C@@](C)(OC)[C@@H](O)[C@H](C)O2)[C@H](C)[C@@H](O[C@@H]2O[C@H](C)C[C@H](N(C)C)[C@H]2O)[C@](C)(OC)C[C@@H](C)C(=O)[C@H](C)[C@@H](O)[C@]1(C)O", "tested on": "Staphylococcus aureus", "test": "checkerboard broth microdilution", "test system": "methicillin-susceptible isolate 56-96", "setting": "together with: magainin II", "measurement": "FIC index", "value": 1}
{"Molecule": "SIIVFEKL", "tested on": "OT-I CD8+ T cells", "test": "refers to: IL-2, IFN-gamma, TNF-alpha", "test system": "peptide", "setting": "primed 5 d, OVA257 100 ng/mL restimulation, together with: no TGF-beta1", "measurement": "double cytokine producers", "value": "7.26%"}
{"Molecule": "Cc1cc(-c2ccccc2)c2c(n1)C1(CCCCC1)NC2=O", "tested on": "human erythrocytes", "test": "hypotonicity-induced hemolysis", "setting": "1000 µg/mL, 1 h", "measurement": "inhibition", "value": "90.1%"}
{"Molecule": "COc1ccc(-c2ccc(-c3ccc(C(=N)N)nc3)s2)cc1", "tested on": "HepG2", "test": "real-time PCR, refers to: topoisomerase II", "setting": "0.1 µM, 8 h, unit not given", "scale": "reference: untreated", "measurement": "mRNA level", "value": "1.23 ± 0.05"}
{"Molecule": "O=C(OOC(=O)c1ccccc1)c1ccccc1", "tested on": "cysteine peptide Ac-RFAACAA-COOH", "test": "peptide depletion, DPRA RapidFire-MS/MS", "setting": "24 h, pH 7.5, room temperature, together with: 5.0 µM cysteine peptide", "measurement": "IC50", "value": "95.3 µM"}
{"Molecule": "O=C1NC2(CCCCC2)c2[nH]c(=S)nc(-c3ccccc3)c21", "tested on": "human erythrocytes", "test": "hypotonicity-induced hemolysis", "setting": "600 µg/mL, 1 h", "measurement": "inhibition", "value": "82.6%"}
{"Molecule": "IINFEKE", "tested on": "ERAP1 human L734R", "test": "activator", "test system": "peptide", "setting": "100 µM, pH 8.0, 27 °C, together with: L-AMC substrate", "measurement": "Vmax of L-AMC hydrolysis", "value": "264 ± 2 nmol/min/µg"}
{"Molecule": "Clc1ccccc1", "tested on": "cysteine peptide Ac-RFAACAA-COOH", "test": "DPRA RapidFire-MS/MS", "setting": "24 h, pH 7.5, together with: 5.0 µM cysteine peptide", "measurement": "peptide depletion", "value": "inactive"}
{"Molecule": "Cc1c(C)c2c(c(C)c1OCc1ccccc1)CCC(C)(C(=O)NN=C1C(=O)Nc3ccc(Br)cc31)O2 (stereo not shown)", "test": "seizure protection", "test system": "male CF-1 mice", "setting": "intraperitoneal, 4 h, together with: pentylenetetrazole 60 mg/kg subcutaneous", "measurement": "minimal effective dose", "value": "100 mg/kg"}
{"Molecule": "CCCCCCC(C=O)=Cc1ccccc1", "tested on": "cysteine peptide Ac-RFAACAA-COOH", "test": "peptide depletion, DPRA RapidFire-MS/MS", "setting": "24 h, pH 7.5, room temperature, together with: 5.0 µM cysteine peptide", "measurement": "IC50", "value": "inactive"}
{"Molecule": "Cc1c(C)c2c(c(C)c1OCc1ccccc1)CCC(C)(C(=O)NN=C1C(=O)Nc3ccccc31)O2 (stereo not shown)", "test": "seizure protection", "test system": "male CF-1 mice", "setting": "intraperitoneal, 0.5 h, together with: maximal electroshock", "measurement": "minimal effective dose", "value": "> 300 mg/kg"}
{"Molecule": "C[C@H]1c2cccc(O)c2C(=O)C2=C(O)[C@]3(O)C(=O)C(C(N)=O)=C(O)[C@@H](N(C)C)[C@@H]3[C@@H](O)[C@@H]21", "tested on": "Staphylococcus aureus", "test": "checkerboard broth microdilution", "test system": "clinical isolate 21-99", "setting": "together with: magainin II", "measurement": "FIC index", "value": 0.75}
{"Molecule": "COc1c(C)c(C)c2c(c1C)CCC(C)(C(=O)NN=C1C(=O)Nc3ccccc31)O2 (stereo not shown)", "test": "seizure protection", "test system": "male CF-1 mice", "setting": "intraperitoneal, 4 h, together with: maximal electroshock", "measurement": "minimal effective dose", "value": "300 mg/kg"}
{"Molecule": "CC(C)(N)C(=O)O", "tested on": "Ehrlich ascites cells, mouse", "test": "system A uptake", "setting": "extrapolated to infinite Na+", "measurement": "Km", "value": "1100 µM"}
{"Molecule": "Cc1c(C)c2c(c(C)c1O)CCC(C)(C(=O)NN=C1C(=O)Nc3ccccc31)O2 (stereo not shown)", "test": "seizure protection", "test system": "male CF-1 mice", "setting": "intraperitoneal, 4 h, together with: pentylenetetrazole 60 mg/kg subcutaneous", "measurement": "minimal effective dose", "value": "300 mg/kg"}
{"Molecule": "O=C(O)c1ccc2c(c1)C(=O)OC2=O", "tested on": "cysteine peptide Ac-RFAACAA-COOH", "test": "peptide depletion, DPRA RapidFire-MS/MS", "setting": "24 h, pH 7.5, room temperature, together with: 5.0 µM cysteine peptide", "measurement": "IC50", "value": "inactive"}
{"Molecule": "COc1c(C)c(C)c2c(c1C)CCC(C)(C(=O)NN=C1C(=O)Nc3cc(Cl)ccc31)O2 (stereo not shown)", "test": "seizure protection", "test system": "male CF-1 mice", "setting": "intraperitoneal, 4 h, together with: maximal electroshock", "measurement": "minimal effective dose", "value": "300 mg/kg"}
{"Molecule": "C[C@@H](O)[C@H]1C(=O)N2C(C(=O)O)=C(S[C@@H]3CN[C@H](C(=O)N(C)C)C3)[C@H](C)[C@H]12", "tested on": "Staphylococcus aureus", "test": "checkerboard", "test system": "ATCC 25923", "setting": "together with: magainin II", "measurement": "FIC index", "value": 0.187}
{"note": "Repeated from above:"}
{"Molecule": "CCOC(=O)/C=C\\C(=O)OCC", "tested on": "cysteine peptide Ac-RFAACAA-COOH", "test": "DPRA RapidFire-MS/MS", "setting": "24 h, pH 7.5, together with: 5.0 µM cysteine peptide", "measurement": "maximal peptide depletion", "value": "-108%"}
{"Molecule": "CO/N=C(\\C(=O)N[C@@H]1C(=O)N2C(C(=O)O)=C(CSc3nc(=O)c(=O)[nH]n3C)CS[C@H]12)c1csc(N)n1", "tested on": "Staphylococcus aureus", "test": "checkerboard broth microdilution", "test system": "methicillin-susceptible isolate 56-96", "setting": "together with: magainin II", "measurement": "FIC index", "value": 0.25}
{"Molecule": "Cc1noc(NS(=O)(=O)c2ccc(N=NN(O)c3ccccc3)cc2)c1C", "test": "paw oedema", "test system": "rat, carrageenan oedema", "setting": "oral, 100 mg/kg, 2 h after carrageenan", "scale": "reference: vehicle", "measurement": "inhibition", "value": "39.7%"}
{"Molecule": "COc1c(Cl)c(C)c(C=O)c(O)c1C/C=C(C)/C=C/[C@@]1(C)[C@H](C)CCC(=O)[C@@H]1C", "tested on": "Wickerhamomyces anomalus", "test": "O2 uptake, inhibitor", "test system": "mitochondria", "setting": "together with: glycerol 3-phosphate 20 mM", "measurement": "IC50", "value": "5.8 µM"}
{"Molecule": "O=C1NC2(CCCCC2)c2nc3c(c(-c4ccccc4)c21)CCCC3", "tested on": "human erythrocytes", "test": "hypotonicity-induced hemolysis", "setting": "1000 µg/mL, 1 h", "measurement": "inhibition", "value": "96%"}
